Measured values pooled from the literature.
± marks the error that the study gave.

CN(C)CCO/N=C1/C=C2CCC3C(CC[C@]4(C)/C(=C/c5ccccn5)CCC34)[C@@]2(C)CC1 (stereo partly drawn)
IC50 (G-361; cell growth or viability, resazurin; 72 h): 10.6 µM

O=C(CSc1cccc[n+]1[O-])c1ccccc1Br
IC50 (HCC4017; cell growth or viability, MTS; 96 h): 33.5 µM

Nc1cccc[n+]1Cc1cccc(C[n+]2ccccc2N)c1
IC50 (3T3-L1; cell viability, MTT; 72 h): 56.87 ± 0.24 µM

CCCCCCC[C@@H](CC(=O)O)OC(=O)C[C@@H](CCCCCCC)O[C@@H]1O[C@@H](C)[C@H](O)[C@@H](O)[C@H]1O
IC50 (H1299; cytotoxicity, MTS; 72 h): 190 µM

C#CCN(CC(=O)O[C@H]1[C@H](C)O[C@@H](O[C@H]2[C@H](N(C)C)[C@@H](O)[C@H](O[C@H]3[C@@H](CC=O)C[C@@H](C)[C@@H](O[C@H]4CC[C@H](N(C)C)[C@@H](C)O4)/C=C/C=C/C[C@@H](C)OC(=O)C[C@@H](O)[C@@H]3OC)O[C@@H]2C)C[C@@]1(C)O)C(=O)c1ccc(C(F)(F)F)cc1
IC50 (HGC-27; cell viability, CCK-8; 72 h, without N-acetylcysteine): 0.219 µM

Cc1ccc(C(C)C)cc1.Cc1ncc(CO)c(C=NNC2=Nc3ccccc3-c3[nH]c4ccc(Br)cc4c3C2)c1O.[Cl-].[Cl][Os+]
IC50 (CH1; cell growth or viability, MTT; 96 h): 3.3 µM

CC(=O)[O-].Nc1ccc(C([O-])=NN=Cc2ccc(OCC(=O)Nc3ccc(Cl)cc3)cc2)cc1.O.O.O.[Co+2]
IC50 (WISH; cell growth or viability, MTT; 24 h): 31 µg/mL

C[O][Pt-2]([NH3+])([NH3+])([OH])([Cl])[Cl]
IC50 (CH1; cell growth or viability, MTT; 96 h): 0.61 µM

N[C@@H]1CCCC[C@H]1N.O=C1[O][Pt]2([O]C1=O)[O]C(=O)C(=O)[O]2
IC50 (CH1; cell viability, MTT; 96 h): 4.1 ± 0.9 µM

N=C(N/N=C/c1cncnc1)N/N=C/c1cncnc1
IC50 (IMR-90; cell growth or viability, crystal violet; 72 h): 95.6 µM

CCCCCCOc1c(O)cc(C(=O)O[C@@H]2Cc3c(O)cc(O)cc3O[C@@H]2c2cc(O)c(O)c(O)c2)cc1O
IC50 (A-431; cell growth or viability, CCK-8; 24 h): 105 µM

Cn1cc(-c2cc(N3CCCS3(=O)=O)ccc2N[C@H]2CC[C@@](C)(O)CC2)c2cc[nH]c2c1=O
IC50 (Light II cells; GLI reporter gene, inhibitor; Hedgehog pathway): 0.00158 ± 0.00066 µM

CC1(C)[C@@H](O)CC[C@]2(C)[C@H]3C(=O)C=C4[C@@H]5C[C@@](C)(C(=O)O)CC[C@]5(C)CC[C@@]4(C)[C@]3(C)CC[C@@H]12
IC50 (IOSE80; cell growth or viability, MTT; 48 h): > 100 µM

O=C(NN1C(=O)c2ccccc2NC1c1ccc([N+](=O)[O-])o1)c1ccc([N+](=O)[O-])cc1 (stereo not drawn)
IC50 (LDR; cell viability, MTS; 4 days): 49 µM

Cc1ccc(C(C)C)cc1.O=C(N=P(c1ccccc1)(c1ccccc1)c1ccccc1)c1ccccn1.[Cl-].[Cl][Ru+]
IC50 (HCC1806; cell growth or viability, resazurin): 9.29 µM

COC(=O)[C@@H]1[C@@H](OC)[C@H](OC(=O)c2cc(OC)c(OC)c(OC)c2)C[C@@H]2CN3CC[C@]4(O[C@@H]3C(=O)[C@@H]21)C(=O)Nc1cc(OC)ccc14
IC50 (CAPAN-1; cell growth or viability, crystal violet; 72 h): 23 µM

COc1cc2c(cc1/C(C)=N/O)CCC1C(C)(C)c3nc(C)ncc3C[C@]21C (mixture of isomers)
IC50 (TM3; cell growth or viability, SRB; 24 h): > 100 µM

CO[C@@H]1[C@@H](O[C@@H]2O[C@H](C)[C@@H](O[C@H]3C[C@@](C)(O)[C@@H](OC(=O)Cc4ccc(C(C)(C)C)cc4)[C@H](C)O3)[C@H](N(C)C)[C@H]2O)[C@@H](CC=O)C[C@@H](C)[C@@H](O[C@H]2CC[C@H](N(C)C)[C@@H](C)O2)/C=C/C=C/C[C@@H](C)OC(=O)C[C@H]1O
IC50 (HGC-27; cell growth or viability, CCK-8; 72 h): 0.49 µM

Some of these lines once more:
Cc1ccc(C(C)C)cc1.Cc1ncc(CO)c(C=NNC2=Nc3ccccc3-c3[nH]c4ccc(Br)cc4c3C2)c1O.[Cl-].[Cl][Os+]
IC50 (CH1; cell growth or viability, MTT; 96 h): 3.3 µM

CC(=O)[O-].Nc1ccc(C([O-])=NN=Cc2ccc(OCC(=O)Nc3ccc(Cl)cc3)cc2)cc1.O.O.O.[Co+2]
IC50 (WISH; cell growth or viability, MTT; 24 h): 31 µg/mL
